Measured values gathered from unrelated publications.
Compare with care: the assays were run in different laboratories. Values joined by “and” are separate records of one study, mostly repeats; a detail may differ. Numbers after ± are the reported error.

Under “spermatids failing translocation”, Cc1ccc(C2=CC(C)(C)Oc3ccc(-c4ccc(-c5ccc(C(=O)O)cc5)[nH]4)cc32)cc1 is recorded as 7.7% (histology; CD1 mouse male, testis; 20 mg/kg/day for 2 weeks, 1 day after end of dosing, males with severe disruption).
For CC(=O)NCSC[C@H](NC(=O)[C@@H]1CCCN1C(=O)[C@H](C)NC(=O)[C@@H](NC(=O)CNC(=O)[C@@H](NC(=O)[C@H](Cc1c[nH]c2ccccc12)NC(=O)[C@H](C)NC(=O)CNC(=O)[C@H](CO)NC(=O)[C@H](C)NC(=O)[C@@H]1CCCN1C(=O)[C@H](Cc1c[nH]c2ccccc12)NC(=O)[C@H](C)NC(=O)[C@H](C)NC(=O)[C@@H](N)Cc1ccc(O)cc1)[C@@H](C)O)[C@@H](C)O)C(=O)N[C@@H](CO)C(=O)N[C@@H](C)C(=O)NCC(=O)N[C@H](C(=O)NCCOCCOCCOCCOCCOCCOCCOCCOCCOCCOCCOCCOCCC(=O)N[C@@H](CS)C(N)=O)[C@@H](C)O, “number of cell lines” read 3 (phage binding; panel of 11 cancer lines; selectivity at least 20).
O=C(Cc1ccc(Cl)c(Cl)c1)N1CCN(Cc2ccccc2)[C@@H]2COC[C@H](N3CCCC3)[C@H]21 (single isomer, unassigned) — result for serum prolactin: “inhibited” (antagonist; male C57BL/6 mice, serum; 3 mg/kg, 15 min, KOR target engagement, with: KOR agonist 30 mg/kg).
CCCCCC1=C(NCC)C(=O)C(C/C=C(\C)CCC=C(C)C)=C(O)C1=O: “log2 fold change” 1.02 (RNA-Seq, measured: Ifitm3 mRNA; mice, AAV9-A53T α-synuclein lesion, lesioned striatum; oral, dose not given; baseline: vehicle-treated lesioned mice).
For Cc1cc(NC(=O)C(=O)N2C[C@@H](C)CC[C@@H]2c2ccc3scnc3c2)cnc1N, “median survival extension” read 53 days (mouse, U-87 MG MTAP-null orthotopic glioblastoma; 120 mg/kg twice daily).
CN(C)c1ncnc2c1ncn2[C@@H]1O[C@H](CCl)[C@@H](NC(=O)[C@H](N)CSC(c2ccccc2)c2ccccc2)[C@H]1O has an inhibition of 0% (protein synthesis, measured: GFP; human cell-free translation; 25 µM).
Under “tumour growth inhibition”, Cc1ccc(S(=O)(=O)N2CC2C(=O)N(C)C)cc1 (stereo not drawn) is recorded as 11% (mouse, Lewis lung carcinoma; intraperitoneal, 170 mg/kg, 16 doses, day 12).
For COc1ccccc1-c1n[nH]c2nc(NC3CCN(C(=O)Cc4ccc(F)cc4F)CC3)ncc12, the relative abundance was 1.37 (bead binding, competition bead pull-down, measured: LINJ.25.1850; Leishmania donovani extract; 10 µM; baseline: vehicle).
For O=C(NCc1cc(F)cc(F)c1)[C@@]1(O)CCN(c2ccc3[nH]ccc3c2)C1=O, “median survival time” read 24 days (sample H PDX mouse; dose not given, RTV endpoint 500%).
The relative abundance of COc1ccccc1-c1n[nH]c2nc(N[C@H]3CC[C@H](NS(=O)(=O)CC(C)C)CC3)ncc12 is reported as 0.8 (bead binding, competition bead pull-down, measured: LINJ.36.4380; Leishmania donovani extract; 10 µM; baseline: vehicle).
CC(C)[C@H](NC(=O)[C@H](CCCNC(=N)N)NC(=O)[C@@H]1CCCN1C(=O)[C@@H](NC(=O)[C@H](C)NC(=O)[C@H](Cc1ccc(O)cc1)NC(=O)[C@H](CCC(N)=O)NC(=O)[C@H](CCCCN)NC(=O)[C@H](CCCNC(=N)N)NC(=O)[C@@H]1CCCN1C(=O)[C@H](CCC(=O)O)NC(=O)[C@@H](NC(=O)[C@H](C)N)[C@@H](C)O)[C@@H](C)O)C(=O)N[C@@H](Cc1ccccc1)C(=O)N[C@@H](Cc1c[nH]c2ccccc12)C(=O)N[C@H](C(=O)N[C@@H](CC(=O)O)C(=O)N[C@@H](C)C(=O)N1CCC[C@H]1C(=O)NCC(=O)NCCOCCOCCOCCOCCOCCOCCOCCOCCOCCOCCOCCOCCC(=O)N[C@@H](CS)C(N)=O)[C@@H](C)O: “number of cell lines” 3 (phage binding; panel of 11 cancer lines; selectivity at least 20).
With O=c1n(CCNCCOS(=O)(=O)c2ccccc2)c(=O)n(S(=O)(=O)c2ccccc2)c(=O)n1S(=O)(=O)c1ccccc1 the inhibition was 39.1% (DPPH scavenging; 31.25 µg/mL).
O=C(O)c1ccc(-c2nc(-c3ccccc3Cl)c3sccn23)cc1 has a platelet recovery of 79.4% and 95.4% and 69.1% and 50.3% and 79.6% and 55.2% and 73% and 91.4% (C57BL/6 mouse 5-FU stress; dose not given, nadir days 3 and 4).
CCN(Cc1ccccc1)C(=O)CCc1nc(CN2CCN(C(=O)Cc3ccc(OC)c(OC)c3)CC2)no1: “action potential number” 1.78 ± 0.42 (current clamp; DRG neurons, naive rat; 1 µM, with: 500 pA current injection).
Under “time to 50% conversion”, C[C@]12C(=O)[C@](C)(C(c3ccccc3)=C1c1ccccc1)C1(Br)C(=O)N(CCN)C(=O)C12 (stereo partly drawn) is recorded as 1160 min and 2080 min and 1430 min and 2280 min and 2260 min (HPLC, measured: CO-release by-product; TRIS-sucrose buffer; pH 7.4, 4-5 °C).
For CC(C)C[C@@H]1NC(=O)[C@@H](Cc2c[nH]c3ccccc23)NC(=O)[C@H](CCCNC(=N)N)NC(=O)[C@@H](CCC(=O)O)NC(=O)[C@H](CCC(N)=O)NC(=O)[C@@H](CCC(=O)O)NC(=O)[C@H](CCCNC(=N)N)NC(=O)[C@@H](Cc2c[nH]c3ccccc23)NC1=O, the cytokine level was 1100 ± 190 pg/g tissue (Luminex, measured: IL1a; LDLr-/- mice, Western diet, liver; dose not given, 4 weeks).
Under “osteoid surface/bone surface”, CCc1nnc(-c2c(OC)cc(-c3cnc4cc(-c5cnn(C)c5)ccn34)cc2OC)o1 is recorded as 2.3 ± 0.597% (histomorphometry; male C57BL/6J mouse, tibia; oral gavage, 10 mg/kg once daily, 3 wk).
Under “time in interaction zone, target present”, COc1cccc(OCCN2CCC[C@H](CN3CCc4cc(OC)c(OC)cc4CC3=O)C2)c1 is recorded as “no effect” (C57BL/6J mouse, male, stress-naive; intraperitoneal, 5 mg/kg, 14 d post-dose; baseline: before dosing).
